Published values from different studies.
Parts stem from different laboratories: compare values within a part only. Positions count from the first letter of the parent shown.
Chain of UniProt P11802 (whole entry, looked up): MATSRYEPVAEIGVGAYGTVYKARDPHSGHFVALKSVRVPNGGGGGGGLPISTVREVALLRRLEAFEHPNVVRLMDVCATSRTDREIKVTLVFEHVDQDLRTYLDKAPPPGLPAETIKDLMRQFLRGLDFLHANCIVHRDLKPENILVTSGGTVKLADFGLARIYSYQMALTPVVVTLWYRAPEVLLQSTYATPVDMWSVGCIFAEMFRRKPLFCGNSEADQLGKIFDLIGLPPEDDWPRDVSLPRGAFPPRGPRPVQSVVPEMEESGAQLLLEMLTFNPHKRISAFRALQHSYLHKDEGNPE
Chain of UniProt P05771 (whole entry, looked up): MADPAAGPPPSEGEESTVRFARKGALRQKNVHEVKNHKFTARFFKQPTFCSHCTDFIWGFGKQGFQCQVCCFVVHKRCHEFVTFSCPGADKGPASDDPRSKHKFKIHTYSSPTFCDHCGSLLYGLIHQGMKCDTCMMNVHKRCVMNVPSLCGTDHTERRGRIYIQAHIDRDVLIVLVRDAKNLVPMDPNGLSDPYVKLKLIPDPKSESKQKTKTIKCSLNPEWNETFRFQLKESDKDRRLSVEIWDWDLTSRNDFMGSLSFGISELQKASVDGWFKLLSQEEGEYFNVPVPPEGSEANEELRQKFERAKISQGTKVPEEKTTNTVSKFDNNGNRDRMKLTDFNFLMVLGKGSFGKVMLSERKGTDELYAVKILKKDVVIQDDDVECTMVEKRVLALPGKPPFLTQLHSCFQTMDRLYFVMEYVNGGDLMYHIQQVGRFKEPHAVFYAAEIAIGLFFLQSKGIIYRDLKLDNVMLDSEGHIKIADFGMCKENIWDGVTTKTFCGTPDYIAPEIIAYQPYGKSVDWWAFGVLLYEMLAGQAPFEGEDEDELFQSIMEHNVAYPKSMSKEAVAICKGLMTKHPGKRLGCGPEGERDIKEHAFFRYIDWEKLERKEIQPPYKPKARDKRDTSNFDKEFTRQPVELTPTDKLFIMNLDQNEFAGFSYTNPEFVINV
Chain of UniProt Q13557 (whole entry, looked up): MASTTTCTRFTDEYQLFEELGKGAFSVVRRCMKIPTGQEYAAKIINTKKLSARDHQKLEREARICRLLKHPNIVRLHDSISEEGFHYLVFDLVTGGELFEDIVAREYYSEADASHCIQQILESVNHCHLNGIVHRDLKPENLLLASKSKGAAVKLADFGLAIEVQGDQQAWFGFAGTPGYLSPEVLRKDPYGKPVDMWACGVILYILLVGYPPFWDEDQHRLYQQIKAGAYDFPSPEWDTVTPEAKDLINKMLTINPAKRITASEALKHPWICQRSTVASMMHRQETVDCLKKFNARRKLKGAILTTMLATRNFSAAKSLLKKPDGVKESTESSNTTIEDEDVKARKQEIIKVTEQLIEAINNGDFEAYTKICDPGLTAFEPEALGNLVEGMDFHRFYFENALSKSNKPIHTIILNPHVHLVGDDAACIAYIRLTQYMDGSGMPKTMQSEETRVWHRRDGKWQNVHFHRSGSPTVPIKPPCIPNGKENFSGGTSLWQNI
Chain of UniProt Q00535 (whole entry, looked up): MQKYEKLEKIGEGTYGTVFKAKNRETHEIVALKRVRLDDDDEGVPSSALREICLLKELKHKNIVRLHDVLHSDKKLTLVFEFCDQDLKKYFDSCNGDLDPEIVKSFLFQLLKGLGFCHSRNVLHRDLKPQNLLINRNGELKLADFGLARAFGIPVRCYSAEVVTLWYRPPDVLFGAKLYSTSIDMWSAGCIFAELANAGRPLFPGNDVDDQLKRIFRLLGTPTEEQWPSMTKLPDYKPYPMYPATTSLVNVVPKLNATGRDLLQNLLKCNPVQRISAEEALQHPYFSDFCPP
Chain of UniProt Q96RR4 (whole entry, looked up): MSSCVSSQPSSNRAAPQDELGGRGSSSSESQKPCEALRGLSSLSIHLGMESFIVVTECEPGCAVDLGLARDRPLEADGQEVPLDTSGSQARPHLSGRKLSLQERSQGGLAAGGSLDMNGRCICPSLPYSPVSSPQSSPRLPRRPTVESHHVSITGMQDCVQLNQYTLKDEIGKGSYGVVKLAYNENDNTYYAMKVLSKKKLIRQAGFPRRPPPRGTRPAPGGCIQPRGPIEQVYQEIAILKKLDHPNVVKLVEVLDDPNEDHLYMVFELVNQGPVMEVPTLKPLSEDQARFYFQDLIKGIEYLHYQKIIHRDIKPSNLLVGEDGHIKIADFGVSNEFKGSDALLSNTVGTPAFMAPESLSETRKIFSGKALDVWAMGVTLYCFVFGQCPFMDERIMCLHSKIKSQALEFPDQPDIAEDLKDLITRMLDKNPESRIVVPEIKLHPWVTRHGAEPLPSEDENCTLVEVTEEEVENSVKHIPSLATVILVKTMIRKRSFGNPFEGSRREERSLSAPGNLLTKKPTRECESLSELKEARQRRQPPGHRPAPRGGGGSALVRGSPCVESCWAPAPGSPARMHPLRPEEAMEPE
Chain of UniProt P35626 (whole entry, looked up): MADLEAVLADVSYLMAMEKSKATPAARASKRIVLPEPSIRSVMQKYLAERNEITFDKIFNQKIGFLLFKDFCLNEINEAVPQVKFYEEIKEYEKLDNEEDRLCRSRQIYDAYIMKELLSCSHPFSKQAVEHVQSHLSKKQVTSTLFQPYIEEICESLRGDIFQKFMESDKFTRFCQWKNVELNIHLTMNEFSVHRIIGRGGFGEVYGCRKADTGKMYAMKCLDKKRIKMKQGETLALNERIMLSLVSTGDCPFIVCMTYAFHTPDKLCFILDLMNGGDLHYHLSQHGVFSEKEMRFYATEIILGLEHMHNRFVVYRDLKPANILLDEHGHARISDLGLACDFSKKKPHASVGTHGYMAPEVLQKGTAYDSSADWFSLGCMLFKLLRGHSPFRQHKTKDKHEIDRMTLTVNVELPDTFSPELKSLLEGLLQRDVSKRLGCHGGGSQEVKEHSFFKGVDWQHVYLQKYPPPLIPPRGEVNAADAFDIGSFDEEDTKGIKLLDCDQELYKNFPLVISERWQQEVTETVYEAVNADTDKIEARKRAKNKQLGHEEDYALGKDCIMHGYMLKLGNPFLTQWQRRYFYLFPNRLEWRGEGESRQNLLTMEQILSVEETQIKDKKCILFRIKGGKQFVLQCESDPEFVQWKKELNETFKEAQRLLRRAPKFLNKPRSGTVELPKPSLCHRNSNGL
Chain of UniProt O96017 (whole entry, looked up): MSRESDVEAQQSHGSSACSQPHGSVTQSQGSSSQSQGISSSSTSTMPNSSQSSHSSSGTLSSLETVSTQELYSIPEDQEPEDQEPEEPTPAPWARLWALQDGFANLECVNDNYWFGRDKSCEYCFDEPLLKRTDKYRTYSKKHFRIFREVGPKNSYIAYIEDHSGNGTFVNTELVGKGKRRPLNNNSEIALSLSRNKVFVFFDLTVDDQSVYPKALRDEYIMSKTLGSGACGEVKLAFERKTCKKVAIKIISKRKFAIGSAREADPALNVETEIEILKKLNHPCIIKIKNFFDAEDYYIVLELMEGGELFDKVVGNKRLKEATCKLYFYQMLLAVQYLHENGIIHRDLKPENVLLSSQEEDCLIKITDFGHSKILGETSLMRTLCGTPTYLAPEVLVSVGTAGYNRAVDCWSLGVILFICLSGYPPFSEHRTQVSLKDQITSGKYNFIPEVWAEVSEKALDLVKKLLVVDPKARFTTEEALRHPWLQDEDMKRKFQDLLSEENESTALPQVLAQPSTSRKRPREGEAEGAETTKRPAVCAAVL
Chain of UniProt P37173 (whole entry, looked up): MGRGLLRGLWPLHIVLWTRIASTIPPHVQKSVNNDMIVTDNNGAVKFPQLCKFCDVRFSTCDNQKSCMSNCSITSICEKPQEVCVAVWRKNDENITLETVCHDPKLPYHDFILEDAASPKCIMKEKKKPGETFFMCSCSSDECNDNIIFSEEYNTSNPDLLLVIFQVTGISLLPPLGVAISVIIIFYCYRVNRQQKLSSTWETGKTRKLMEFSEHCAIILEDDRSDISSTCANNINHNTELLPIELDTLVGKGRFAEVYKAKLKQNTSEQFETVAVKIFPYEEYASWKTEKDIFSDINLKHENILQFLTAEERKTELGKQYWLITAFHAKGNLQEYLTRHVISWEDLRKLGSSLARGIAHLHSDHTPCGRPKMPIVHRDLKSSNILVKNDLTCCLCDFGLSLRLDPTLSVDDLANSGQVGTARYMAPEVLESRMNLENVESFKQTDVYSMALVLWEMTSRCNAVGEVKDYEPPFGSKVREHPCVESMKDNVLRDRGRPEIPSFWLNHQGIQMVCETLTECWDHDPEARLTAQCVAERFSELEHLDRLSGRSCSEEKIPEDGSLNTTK

Sample 1 — technique: RNA Bind-n-Seq; molecule type: RNA; matrix: in vitro; tested at: 200 nM; notes: whole 134-nt RNA, ends assumed; with: 150 mM LiCl; relative to: input library; reading: higher = stronger binding; all molecules: 7-deaza-guanosine replaces G
Target: Fragile X messenger ribonucleoprotein 1, C-terminal low-complexity region (Fmr1, Mus musculus, UniProt P35922)
Shared flanks, not repeated: GGGAGUUCUACAGUCCGACGAUC … UGGAAUUCUCGGGUGUCAAGG
Sequence | log2 enrichment
CCUCAAGUCCUGUGCUACACAUCGUAUGUACCGAAUCGGUGGAGGAAAAAGGAAAGUAUUAUGUUACGCCGUUCGGAUCUGCACUUCCAG | 0.659
CACAGACAACACGAACCCACACAGACACAGAGGGAAGGGGUUGGGAUGGGGACAGGGUGCACAGCAGGGCGGGGUAGGACCCCAGCCCCU | 0.199
GUCCUGUGCUACACAUCGUAUGUACCGAAUCGGGGUUUUUGGGUUUUUGGGUUUUUGGAAAGUAUUAUGUUACGCCGUUCGGAUCUGCAC | -0.87
CUGUGCUACACAUCGUAUGUACCGAAUCGGGGUUUUUGGGGUUUUUGGGGAAAAAAAGGGGAAAGUAUUAUGUUACGCCGUUCGGAUCUG | 0.21
CACAGACAACACGCACCCACACAGACACAGAGGGAAGGGGUUGGGAUGGGGACAGGGUGCACAGCAGGGCGGGGUAGGAUCCCAGCCCCU | 1.67
CUGUGCUACACAUCGUAUGUACCGAAUCGGUUUUUUUGGGGUUUUUUUGGGUUUUUUUGGGAAAGUAUUAUGUUACGCCGUUCGGAUCUG | 0.728
GUCCUGUGCUACACAUCGUAUGUACCGAAUCGGCCCCCCGGCCCCCCGGCCCCCCGGGGAAAGUAUUAUGUUACGCCGUUCGGAUCUGCA | 1.09
UCCGCACACCCGGCCUGUCACCCUGCUUUCCCUGCCUCUACUUGACUUGGAAUUGGCUGAAGACUACACAGGAAUGCAUCGUUCCCACUC | 1.26

Sample 2 — technique: protein-binding microarray; molecule type: double-stranded DNA, one strand shown; matrix: in vitro; tested at: 2540 nM top; notes: 60-bp whole probe; with: salmon DNA 0.4 mg/ml; relative to: random background probes; reading: higher = stronger binding; shared flanks, not repeated: GCCTAGCAC … GTCTTGATTCGCTTGACGCTGCTG
Target: Interferon regulatory factor 3, full length, phosphomimetic (IRF3, Homo sapiens, UniProt Q14653, residues 1-427, S386D/S396D/S398D/S402D/T404D/S405D)
Chain of UniProt Q14653 (whole entry, unmodified, looked up): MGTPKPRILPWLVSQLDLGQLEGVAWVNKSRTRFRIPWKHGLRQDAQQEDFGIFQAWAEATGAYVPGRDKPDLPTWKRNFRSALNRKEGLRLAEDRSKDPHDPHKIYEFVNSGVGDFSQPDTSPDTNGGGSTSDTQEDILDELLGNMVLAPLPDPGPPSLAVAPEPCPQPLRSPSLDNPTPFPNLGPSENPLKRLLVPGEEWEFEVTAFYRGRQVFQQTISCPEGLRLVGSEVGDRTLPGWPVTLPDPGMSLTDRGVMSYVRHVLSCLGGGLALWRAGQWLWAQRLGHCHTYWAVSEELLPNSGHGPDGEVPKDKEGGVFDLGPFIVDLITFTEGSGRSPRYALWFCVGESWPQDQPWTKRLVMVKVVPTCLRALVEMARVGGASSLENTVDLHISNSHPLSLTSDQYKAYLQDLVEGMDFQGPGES
Sequence | fitted relative affinity
TTAGGACTGGGACTGGTTTAGTGCTAG | -0.886 z-score
TTAGGTATCCCACTGCTTTAGTGCTAG | 1.95 z-score
GAGGAACTGAGTTTCGAGACGTGCTAG | 1.02 z-score
TCATTTTTACTTCGGGTACTGTGCTAG | 1.55 z-score
GACGGTTTCCTTATCGTGACGTGCTAG | 8.18 z-score
TCACATCTCTGCTCCTTACTGTGCTAG | 1.31 z-score
GACGGTTTCAGTATCGAGACGTGCTAG | 4.91 z-score
TCATGGGTCTTGTCTGGAACTGTGCTA | -0.853 z-score

Sample 3 — read-out: enzyme activity; action: inhibitor; tested at: 0.5 µM; relative to: control
SMILES: O=C1NC(=O)c2c1c1c3ccccc3[nH]c1c1[nH]c3cc(Br)ccc3c21
target | remaining activity [%]
STK10 (Homo sapiens, UniProt O94804) | 84.6
Cyclin-dependent kinase 5, with p25 (CDK5, Homo sapiens, UniProt Q00535) | 43.4
CAMK2D (Homo sapiens, UniProt Q13557) | 63.1
DAPK1 (Homo sapiens, UniProt P53355) | 73.5
PRKCA (Homo sapiens, UniProt P17252) | 72.5
MAP3K3 (Homo sapiens, UniProt Q99759) | 105
NEK2 (Homo sapiens, UniProt P51955) | 92
CHEK2 (Homo sapiens, UniProt O96017) | 37.5
IKBKB (Homo sapiens, UniProt O14920) | 92.2
DAPK2 (Homo sapiens, UniProt Q9UIK4) | 98.4
TGFBR2 (Homo sapiens, UniProt P37173) | 61.8
Cyclin-dependent kinase 4, with cyclin D1 (CDK4, Homo sapiens, UniProt P11802) | 84.9
OXSR1 (Homo sapiens, UniProt O95747) | 95.8
Tyrosine-protein kinase Lyn, isoform B (LYN, Homo sapiens, UniProt P07948) | 92.1
CAMKK2 (Homo sapiens, UniProt Q96RR4) | 48.1
IKBKE (Homo sapiens, UniProt Q14164) | 83.4
TGFBR1 (Homo sapiens, UniProt P36897) | 96.9
cGMP-dependent protein kinase 1, isoform beta (PRKG1, Homo sapiens, UniProt Q13976) | 90.7
GRK3 (Homo sapiens, UniProt P35626) | 95.2
PRKACA (Homo sapiens, UniProt P17612) | 103
STK11 (Homo sapiens, UniProt Q15831) | 90.2
Protein kinase C beta type, isoform beta-I (PRKCB, Homo sapiens, UniProt P05771) | 78.6
MAPK9 (Homo sapiens, UniProt P45984) | 99.6
STK39 (Homo sapiens, UniProt Q9UEW8) | 90.7

Sample 4 — Change: D144S; technique: DHFR PCA, deep sequencing; matrix: yeast; relative to: wild-type fitted maximum; reading: higher = stronger binding
Target: ABI1, truncated, D143A, DHFR fusion (Arabidopsis thaliana)
Notes: methotrexate growth selection, single substitutions
Parent: PYL1, truncated, DHFR fusion (Arabidopsis thaliana); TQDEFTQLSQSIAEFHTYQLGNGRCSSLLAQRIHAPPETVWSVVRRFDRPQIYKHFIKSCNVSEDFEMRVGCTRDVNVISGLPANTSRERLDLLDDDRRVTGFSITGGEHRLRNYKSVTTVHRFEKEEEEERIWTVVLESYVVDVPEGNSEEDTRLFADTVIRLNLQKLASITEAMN; partner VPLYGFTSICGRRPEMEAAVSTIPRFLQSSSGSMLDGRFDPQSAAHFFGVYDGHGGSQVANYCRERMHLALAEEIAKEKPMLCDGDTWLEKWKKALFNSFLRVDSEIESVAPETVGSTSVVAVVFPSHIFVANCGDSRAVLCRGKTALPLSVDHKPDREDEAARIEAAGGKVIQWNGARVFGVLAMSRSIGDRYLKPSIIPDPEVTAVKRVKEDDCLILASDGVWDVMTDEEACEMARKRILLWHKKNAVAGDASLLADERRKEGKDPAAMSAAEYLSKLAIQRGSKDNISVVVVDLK
conditions | relative binding score [%]
with: (+)-ABA 17 µM | 47
with: (+)-ABA 0.032 µM | -1.59
with: (+)-ABA 2500 µM | 89.1
with: (+)-ABA 710 µM | 86.5
with: (+)-ABA 0.39 µM | -12.9
with: (+)-ABA 4.8 µM | 13.3

Sample 5 — read-out: radioligand binding; technique: radioligand displacement; tested at: 10 µM
Target: Translocator protein (Tspo, Rattus norvegicus, UniProt P16257)
Chain of UniProt P16257 (whole entry, looked up): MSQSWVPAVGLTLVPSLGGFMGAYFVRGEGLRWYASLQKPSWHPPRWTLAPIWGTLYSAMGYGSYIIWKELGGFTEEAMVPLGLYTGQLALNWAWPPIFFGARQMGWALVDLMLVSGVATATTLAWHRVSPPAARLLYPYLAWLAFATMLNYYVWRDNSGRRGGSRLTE
Compound | inhibition [%]
Cc1c(C(=O)O)cc(-c2ccc(C3CCNCC3)cc2)c2ccc(-c3ccc(C(F)(F)F)cc3)cc12 | -32.4
N#Cc1ccc(Nc2ccc3[nH]c(=O)[nH]c3c2)c(Cl)c1 | 3.22
O=C(O)[C@H]1[C@H](Cn2nnc3ccccc3c2=O)CC[C@@H]1C(=O)c1ccc(OCCC2CCOCC2)cc1 | 9.67
O=C(Nc1ccc(Oc2ccc(F)cc2)cc1)N1CCc2ncccc2[C@H]1c1ccc(F)cc1 | 33.4
CC(=O)C1=C(C)N(c2cccc(C(F)(F)F)c2)C(=O)N[C@@H]1c1ccc(C#N)nc1 | 20
Cn1c(-c2csc(C3CCN(Cc4nc5ncccc5[nH]4)CC3)n2)nc2ccccc21 | 13.7
CCNC(=O)c1cc2c(N3CCOC[C@@H]3C)ccnc2[nH]1 | 30.1

A few entries again (sample 3):
target | remaining activity [%]
MAP3K3 (Homo sapiens, UniProt Q99759) | 105
DAPK2 (Homo sapiens, UniProt Q9UIK4) | 98.4
CAMKK2 (Homo sapiens, UniProt Q96RR4) | 48.1
DAPK1 (Homo sapiens, UniProt P53355) | 73.5
CAMK2D (Homo sapiens, UniProt Q13557) | 63.1
